Published values gathered from unrelated publications.
Parts stem from different laboratories: compare values within a part only. Positions count from the first letter of the parent shown.

Block 1
Target: UBE2D4 UBC core domain (UniProt Q9Y2X8)
Technique: yeast two-hybrid
Sample: yeast
Setting: mostly zero background
Relative to: not given
Direction: higher = stronger interaction
B1: MKRN3 RING domain (UniProt Q13064); chain FAVQRGMDKVCGICMEVVYEKANPNDRRFGILSNCNHSFCIRCIRRWRSARQFENRIVKSCPQCRVTSELVIPSE
B2: RNF6 RING domain (UniProt Q9Y252); chain NSIDSELGKICSVCISDYVTGNKLRQLPCMHEFHIHCIDRWLSENCTCPICRQPVLGSNIAN
B3: CNOT4 RING domain (UniProt O95628); chain MSRSPDAKEDPVECPLCMEPLEIDDINFFPCTCGYQICRFCWHRIRTDENGLCPACRKPYPED
B4: BFAR RING domain (UniProt Q9NZS9); chain GPQISVSEFSCHCCYDILVNPTTLNCGHSFCRHCLALWWASSKKTECPECREKWEGFPKVS
B5: NFX1 RING domain (UniProt Q12986); chain IEQLTTEKYECMVCCELVRVTAPVWSCQSCYHVFHLNCIKKWARSPASQADGQSGWRCPACQNVSAHVPNTY
Target sequence (chain): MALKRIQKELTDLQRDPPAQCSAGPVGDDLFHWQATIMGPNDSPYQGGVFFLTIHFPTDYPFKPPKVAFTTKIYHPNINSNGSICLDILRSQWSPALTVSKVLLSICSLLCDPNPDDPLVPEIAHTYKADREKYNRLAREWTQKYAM
Molecule	lacZ reporter activity
LEALSSDFLACKICLEQLRAPKTLPCLHTYCQDCLAQLADGGRVRCPECRETVPVPPEGV (TRIM56 RING domain (UniProt Q9BRZ2))	0
B1 (MKRN3 RING domain)	0
B2 (RNF6 RING domain)	0
DDVLTKDAGECVICLEELLQGDTIARLPCLCIYHKSCIDSWFEVNRSCPEHPAD (ZNRF1 RING domain (UniProt Q8ND25))	13600
B3 (CNOT4 RING domain)	14700
B4 (BFAR RING domain)	0
B5 (NFX1 RING domain)	0
LVKDFNPYITCYICKGYLIKPTTVTECLHTFCKTCIVQHFEDSNDCPRCGNQVHETNPLE (PCGF5 RING domain (UniProt Q86SE9))	0

Block 2
Target: HLA class I histocompatibility antigen, A alpha chain, allele A*25:01 (Homo sapiens, UniProt P04439)
Read-out: peptide-MHC binding
Form: peptide
Concentration: concentration not given
Molecule	binding
KQMSQPYAV	inactive
RVVRPWGSY	inactive
AVDWYQQRI	inactive
LTDEQKNAV	inactive
MQDVFTFYV	inactive
YLKKLDDFY	inactive
RYSHWTKL	inactive
LVKSAWLSL	inactive

Block 3
Target: CCND2, cyclin fold, Cln2 fusion (human)
Technique: yeast growth competition, sequencing
Sample: yeast
Setting: strong parent motif
Relative to: not given
Direction: higher = stronger binding
Starting sequence: viral docking peptide; YKVKRRLVFGADD; partner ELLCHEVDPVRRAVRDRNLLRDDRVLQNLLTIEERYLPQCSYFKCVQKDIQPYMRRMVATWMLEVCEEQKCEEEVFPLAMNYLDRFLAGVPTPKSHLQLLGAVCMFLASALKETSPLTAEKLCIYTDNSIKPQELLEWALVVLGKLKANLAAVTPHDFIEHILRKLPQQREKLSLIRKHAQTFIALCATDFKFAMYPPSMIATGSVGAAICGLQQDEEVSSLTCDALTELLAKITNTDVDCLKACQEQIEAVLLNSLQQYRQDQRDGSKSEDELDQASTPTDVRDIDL
Variant	normalised enrichment score
V3A	2.7
L7V	-0.096
D12G	1.67
D12K	0.31
D12Y	0.888
R6Q	0.35
K2P	2.04
R6K	1.48

Single results of other studies
SMILES	technique	quantity	result
CCOC(=O)[C@@H]1CSCC(=O)N[C@H](CC)C(=O)N(C)[C@@H](C)C(=O)N[C@H](CC(C)C)C(=O)N(C)[C@H](C)C(=O)N(CC(C)C)CC(=O)N[C@H](CC(C)C)C(=O)N(C)[C@H](C)C(=O)N[C@@H](CC(C)C)C(=O)N1C	PRP-column chromatography	log k' (60)	0.743

Excerpt of the above (block 2):
Molecule	binding
AVDWYQQRI	inactive
LTDEQKNAV	inactive
MQDVFTFYV	inactive
